Measurements of several laboratories.
Each numbered part is a random draw from the data of one study; scales do not carry over between parts. Changes are numbered by the printed parent chain.

Block 1
Target: RNA binding protein fox-1 homolog 2, RRM domain, GST-SBP tag (RBFOX2, Homo sapiens, UniProt O43251-10, residues 100-194)
Technique: RNA Bind-n-Seq
Molecule type: RNA
Sample: in vitro
Tested at: 365 nM
Notes: natural RNA segment, single round, ends assumed
Relative to: no-protein control
Direction: higher = stronger binding
Shared flanks, not repeated: GGGAGUUCUACAGUCCGACGAUC … UGGAAUUCUCGGGUGCCAA
Target sequence (chain): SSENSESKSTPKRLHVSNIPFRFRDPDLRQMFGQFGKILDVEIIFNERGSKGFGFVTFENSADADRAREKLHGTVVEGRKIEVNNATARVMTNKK
| Sequence | RBNS enrichment (R) |
| --- | --- |
| AGUGUUUGUAUGAAUCCUCUCUAGGGGGAGCCUACAAGCAGUUGGUCCGUGCCCGGUUCACUCGGUCUUUCCUGGCCCAAAUCAUAGGACUCCGUAUGCAUUACAAGUAC | 0.331 |
| GCAUCCUGAUUUUUCUGUAGGAACUUUUCUUUGGCAGACCAAGUGAAGACUCAGGAAUGGUGUGCAUUAUAAAUGACACACAUUGCCACUUGUGUAGAUAUUUUUAAGUU | 1.12 |
| CAUGCCUGGGAAGAGGUCCUCAGUGUGAGUUGGGGUCAAACUUGGGCUCCAAGCUGCUUGAGGGGGUCAACCUUGGACCAAAGUUGCCUUAAGCCCCAAGUAUAAAAGAG | 0.411 |
| GUUAAGAGGUUCUGUUUCUAAGGGACUGCUGAGUUAGAUUAGUAUAUACGUGGCAGUAGUUCAGCAAUAAUACAUCACAACAUUGCAUCAAUCAUGGGCUCCCACCAAUA | 0.989 |
| UUCUCCAGCUUACCCUAGGGUGACCAAGUAGGGCCUGUCACACCAGGGUGGCGCAGCUUUCUGUGUGAUGCAGAUGUGUCCUGGUUUCGGCAGCGUAGCCAGCUGCUGCU | 0.474 |
| AUCCUCCUGGCUUCUUACAGAAGAACUGUUGCAGAGUUCACAGCACAGAUGGGCAGAGAUGGUCCCCACAGCUUCAGCCCAUCAUCAUCCCCAGAGGCCGAGCAGGGAGG | 0.516 |
| UGUCCUUUCCUUCUAAUUUUAGAAGUUCUGUUGAGAAACACAAACUGCAAAUUUAAGUCAGCAUUUUUAGGACAGAGUGCUUGGAGAAGUGCUUUUUUGCAGUCUCCUUU | 0.344 |
| CAUGGUGCUGGAAAUGGUUGGGCUGUGUGACAUUUGAAGUGUUUCAGUGGUGGCGUGAGCAGUAGGUGAAGUGGUUGGUGAAGGAUGAGCCUCGCUCGUGAACUUCCUGU | 1.31 |
| UUCUUCCUCUGGGCAAAGAAGGGCUUCCAGUGGCCUUUCCUCACUCUGUAGUGUUUGUGGGGAUAGGUUCCAUGCAAGAACACCUUCCUCCUCCAUCCCCCACUUCACCC | 0.542 |
| GCUGAAAGGCCAUGCAAACACAACAAACUAAUAACUCAGUCCCAAAGCACCCUGCAGCCCUGCAGACACCCCCCCCCUCCAAGAGUGGGAGGCAGGGACCACAGAACUGU | 0.298 |
| UGCUUGCUGUCAUAGUGCAGAGCAGAAACUUGCACACUAUUUAGAGAGCUCCCUUCCCACCUCUCUGCCCAGCCUUGUUACCUCACUUCUGCUCUGGCCAUGGCUGUGAA | 0.52 |
| UCUUCUUUUUCUAGCAUGCUUUACAUAGGAGAGAAUAAAGGGCUAUUUAAUAAGCAAUCCGGAUCUCAGAGAACAUAGUAAUACUGUCUAGUUUAAAGCCUGCAGUAAAG | 1.94 |

Block 2
Target: ABI1, truncated, D143A, DHFR fusion (Arabidopsis thaliana)
Technique: DHFR PCA, deep sequencing
Sample: yeast
Notes: methotrexate growth selection, single substitutions
Together with: (+)-ABA 710 µM
Relative to: wild-type fitted maximum
Direction: higher = stronger binding
Starting sequence: PYL1, truncated, DHFR fusion (Arabidopsis thaliana); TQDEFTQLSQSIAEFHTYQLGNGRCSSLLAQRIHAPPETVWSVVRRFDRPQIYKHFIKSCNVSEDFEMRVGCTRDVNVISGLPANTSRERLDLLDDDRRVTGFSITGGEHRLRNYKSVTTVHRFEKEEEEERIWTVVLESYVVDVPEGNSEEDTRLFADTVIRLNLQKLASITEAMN
| Substitution | relative binding score [%] |
| --- | --- |
| V62L | 101 |
| E67P | 98.4 |
| Q167T | 98.3 |
| H34I | 98.1 |
| Q19V | 107 |
| L20P | 102 |
| E127Q | 114 |
| D48E | 94.2 |
| T173R | 25.8 |
| L8F | 99.7 |
| A175V | 96.3 |
| E127S | 105 |
| D48T | 67.4 |
| E129M | 99.8 |
| K116T | 103 |
| M176Y | 95.8 |
| Q10W | 99.5 |
| Y115K | 6.7 |
| S104G | 59 |

Block 3
Target: CCNF, cyclin fold, Cln2 fusion (human)
Technique: yeast growth competition, sequencing
Sample: yeast
Notes: weak parent motif
Relative to: not given
Direction: higher = stronger binding
Starting sequence: CDAN1 docking peptide (human); RGARSQLFPPTEA
| Substitution | normalised enrichment score |
| --- | --- |
| L7A | -0.0436 |
| R4A | -0.0047 |
| R1A | 0.226 |
| G2A | 0.433 |
| P10A | 1.2 |

Block 4
Target: UBE2S UBC core domain (UniProt Q16763)
Technique: yeast two-hybrid
Sample: yeast
Notes: mostly zero background
Relative to: not given
Direction: higher = stronger interaction
B1: ANAPC11 RING domain (UniProt Q9NYG5); chain GICRMAFNGCCPDCKVPGDDCPLVWGQCSHCFHMHCILKWLHAQQVQQHCPMCRQEWKFKE
B2: MYCBP2 RING domain (UniProt O75592); chain TSLKQDADDMCMICFTEALSAAPAIQLDCSHIFHLQCCRRVLENRWLGPRITFGFISCPICKNKINHIVLKD
B3: TRIM26 RING domain (UniProt Q12899); chain PLRSLEEEVTCSICLDYLRDPVTIDCGHVFCRSCTTDVRPISGSRPVCPLCKKPFKKENIRP
B4: RNF166 RING domain (UniProt Q96A37); chain GDSGLEAQYTCPICLEVYHRPVAIGSCGHTFCGECLQPCLQVPSPLCPLCRLPFDPKKVDK
B5: RNF31 RING domain (UniProt Q96EP0); chain AFLRRLLAQECAVCGWALPHNRMQALTSCECTICPDCFRQHFTIALKEKHITDMVCPACGRPDLTDDTQLL
B6: RNF183 RING domain (UniProt Q96D59); chain EQQGRELEAECPVCWNPFNNTFHTPKMLDCCHSFCVECLAHLSLVTPARRRLLCPLCRQPTVLASGQP
| Molecule | lacZ reporter activity |
| --- | --- |
| B1 (ANAPC11 RING domain) | 0 |
| RYRQMEERITCPICIDSHIRLVFQCGHGACAPCGSALSACPICRQPIRDRIQIF (MIB2 RING domain (UniProt Q96AX9)) | 0 |
| B2 (MYCBP2 RING domain) | 0 |
| B3 (TRIM26 RING domain) | 0 |
| B4 (RNF166 RING domain) | 0 |
| YCEMGSTFQLCKICAENDKDVKIEPCGHLMCTSCLTAWQESDGQGCPFCRCEIKGTEPII (CBLB RING domain (UniProt Q13191)) | 0 |
| B5 (RNF31 RING domain) | 0 |
| PEELAVNNDDCAICWDSMQAARKLPCGHLFHNSCLRSWLEQDTSCPTCRMSLNIADNNR (AMFR RING domain (UniProt Q9UKV5)) | 0 |
| B6 (RNF183 RING domain) | 0 |

Block 5
Target: RING finger protein unkempt homolog, zinc fingers 1-6, GST-SBP tag (UNK, Homo sapiens, UniProt Q9C0B0, residues 30-357)
Technique: RNA Bind-n-Seq
Molecule type: RNA
Sample: in vitro
Tested at: not given
Notes: RNA with constant flanks, human-mouse chimeric sites, ends assumed
Relative to: input RNA pool
Direction: higher = stronger binding
Shared flanks, not repeated: GGGAGUUCUACAGUCCGACGAUC … CAACAGAGGAUUGAGCAUCA
| Sequence | bound/input enrichment [ratio] |
| --- | --- |
| CUGUGACCACAAGAUCCUACCUGAGUGGCAGCUGAAGUUGACUCCCUCUCCUUGCCUGAACCCCCCCCCACUGCCCCUUGAGUCCACAGUGUCGGCUGAGAUGUUGCCUCUGCACGGUUC | 1.1 |
| GUGACUGGUGUUAAGAUUUACCCUCAGCAAAGAAGUGCAGUAGUCACAAUAAUCCCUUCUGUGGUGAGUGCCAGUCAGAUUGUGGAGCUGGUCCCAGACCUCAGUUUAGACAUGGGAACU | 0.273 |
| AAAGAAAAUGGAGAAGUAAAGAUUUUACUGAAAAGUGGGAAGGAGAAACCAAAAACAAAUAUAGAAGACUUACAAAUUAAAAAGGUAAAGAAGAAAAAGAAAAAGAAACACAAAGAGAAU | 16.2 |
| GCUCUUGGGAAUGUAAUCAGCGCCUUGGGGGACAAGAGCAAGAGAGCCACCCAUGUCCCCUAUAGAGACUCUAAGCUGACAAGACUCUUGCAGGAUUCCCUCGGGGGUAACAGCCAAACC | 0.195 |
| ACACAAUAUGAGACCAACAGCAUGGACUUCAAAGUUGGGGCAGAUGGGACAGUCUUCGCCACUAGGGAGCUGCAGGUCCCCUCAGAGCAGGUGGCGUUCACGGUGACUGCAUGGGACAGC | 0.267 |
| GAAACAUUUAAAUUUAAAGAAGCUGUUGUUUUAGGGAGUACGGACUUUCUAGAAGAUGAUAUAGAGAAAAUUGUAGAAGAACUGGGAAAAGAGUAUAAGGGCAACGCCUACCAUCUGAUG | 3 |
| AAAGCCCAAGUAUUUUGAAAAAACUCGAACAGAUUUGACAAGGGUAGCCAGCUUGGAGUCUAGCAAUUUGCCAAUGUGUUUACCAAUCUGGGGGCUUUGUUUUUCUUUCUUCUUUCAAAU | 0.438 |
| UCUGGUCACACUCGUGUGUAUGGUGUUUGCUUUGUUGACACUUCACUGGGCAAGUUUUUCAUCGGCCAGUUUUCGGAUGAUCGCCAUUGUUCCAGAUUUAGGACGCUAGUGGCUCACUAU | 0.251 |
| UGUGAACUGAAAGGUGUGAUCUAAAAAAAACAUGAUUUUUCCUGGCACAUAUUCCAAAGCAAAGACUUUGUUGCCUGCUGCUUAUUGUCUAAUUUACAGGGAUAUUUAAUUUUGUCAGGU | 0.191 |
| GGGUGGGUGGUCAUUGCCGUUUGAGCUGCUGAUUUUCAUGAGUCGCCUUCAAAACUCUCGUGUAGGGUUGACAAUGUGGGGGGGUGGGAAAUCUAGCUUAUUCUUUUAUUUUCAAGUCCA | 4.8 |
| GAUAAGAAAAGCUUGUUGGAGACCCGCUUGCAUGUCACUGGUAGAGACCUGAGGUGUAAAAUAGCUGAAACUUUCGGAUUUCAAGAAAAUUAUAUCAAGAUCGUAAUAAAUAAGAAACAG | 0.568 |

Repeated from above (block 2):
| Substitution | relative binding score [%] |
| --- | --- |
| L8F | 99.7 |
| M176Y | 95.8 |
| K116T | 103 |
